Results pooled from the literature.
Each line is one published result; not all experiments were run side by side. ± gives the spread as reported.

Compound | cell line | assay | system | conditions | how to read | measurement | result
CC(C)(C)C(=O)OCOP(=O)(OCOC(=O)C(C)(C)C)C1CCCN(O)C1=O (stereo not drawn) | TK-10 |  |  |  |  | TGI | 8.05 µM
O=C(C[Se]C(=O)c1ccc2ccccc2c1)Nc1cccc(C(F)(F)F)c1 | NCI60 melanoma subpanel | cytotoxicity, inhibitor |  | five-dose |  | CC50 | 6.57 µM
NC(=O)N/N=C/c1ccc(OCc2cccc(F)c2)cc1 | IMR-32 |  |  | 300 µg/mL, 24 h | higher = more activity | catalase activity (OD450) | 0.049 a.u.
CC(=O)NCSC[C@H](NC(=O)[C@@H]1CCCN1C(=O)[C@H](C)NC(=O)[C@@H](NC(=O)CNC(=O)[C@@H](NC(=O)[C@H](Cc1c[nH]c2ccccc12)NC(=O)[C@H](C)NC(=O)CNC(=O)[C@H](CO)NC(=O)[C@H](C)NC(=O)[C@@H]1CCCN1C(=O)[C@H](Cc1c[nH]c2ccccc12)NC(=O)[C@H](C)NC(=O)[C@H](C)NC(=O)[C@@H](N)Cc1ccc(O)cc1)[C@@H](C)O)[C@@H](C)O)C(=O)N[C@@H](CO)C(=O)N[C@@H](C)C(=O)NCC(=O)N[C@H](C(=O)NCCOCCOCCOCCOCCOCCOCCOCCOCCOCCOCCOCCOCCC(=O)N[C@@H](CS)C(N)=O)[C@@H](C)O | H2122 lung adenocarcinoma | cell binding, phage binding, item: output/input phage |  | 10 min, 37 °C | relative to: control phage | selectivity ratio | 3.6 ± 1.3
Cc1cc(Oc2nc(N3CC[C@@H](c4ccncc4)C3)ncc2F)[nH]n1 | PANC-1 | cell proliferation | pancreas cancer |  |  | IC50 | 79.4 µM
O=C(C[Se]C(=O)c1ccccc1)Nc1cccc(C(F)(F)F)c1 | NCI60 leukaemia subpanel | NCI60 five-dose screen |  |  |  | GI50 | 2.67 µM
CSCC[C@H](NC(=O)[C@@H](NC(=O)[C@H](CCC(N)=O)NC(=O)[C@H](CO)NC(=O)[C@@H](N)C(C)C)[C@@H](C)O)C(=O)N[C@@H](CCCNC(=N)N)C(=O)N[C@@H](CCC(N)=O)C(=O)N[C@H](C(=O)N[C@@H](C)C(=O)N[C@H](C(=O)N1CCC[C@H]1C(=O)N[C@@H](CC(C)C)C(=O)N[C@@H](CC(C)C)C(=O)N[C@@H](Cc1c[nH]c2ccccc12)C(=O)N[C@@H](Cc1ccccc1)C(=O)N[C@@H](Cc1c[nH]c2ccccc12)C(=O)N[C@H](C(=O)NCC(=O)N[C@@H](CO)C(=O)N[C@@H](CC(C)C)C(=O)NCCOCCOCCOCCOCCOCCOCCOCCOCCOCCOCCOCCOCCC(=O)N[C@@H](CS)C(N)=O)[C@@H](C)O)C(C)C)[C@@H](C)O | H1299 lung large cell carcinoma | cell binding, phage binding, item: output/input phage |  | 10 min, 37 °C | relative to: control phage | selectivity ratio | 190 ± 20
CSCC[C@H](N)C(=O)N[C@@H](C)C(=O)N[C@@H](Cc1c[nH]c2ccccc12)C(=O)N[C@@H](Cc1c[nH]cn1)C(=O)N[C@@H](CC(=O)O)C(=O)N[C@@H](CC(=O)O)C(=O)N[C@@H](CCC(=O)O)C(=O)N[C@@H](CCC(=O)O)C(=O)N[C@@H](Cc1ccccc1)C(=O)N[C@@H](C)C(=O)N[C@@H](CCCNC(=N)N)C(=O)N[C@@H](CCCNC(=N)N)C(=O)N[C@@H](CCCNC(=N)N)C(=O)N[C@@H](CCCNC(=N)N)C(=O)NCCCCCC(=O)NCCCCC(NC(=O)CCCCCNC(=O)[C@H](CCCNC(=N)N)NC(=O)[C@H](CCCNC(=N)N)NC(=O)[C@H](CCCNC(=N)N)NC(=O)[C@H](CCCNC(=N)N)NC(=O)[C@H](C)NC(=O)[C@H](Cc1ccccc1)NC(=O)[C@H](CCC(=O)O)NC(=O)[C@H](CCC(=O)O)NC(=O)[C@H](CC(=O)O)NC(=O)[C@H](CC(=O)O)NC(=O)[C@H](Cc1c[nH]cn1)NC(=O)[C@H](Cc1c[nH]c2ccccc12)NC(=O)[C@H](C)NC(=O)[C@@H](N)CCSC)C(=O)NCCCCC(NC(=O)C(CCCCNC(=O)CCCCCNC(=O)[C@H](CCCNC(=N)N)NC(=O)[C@H](CCCNC(=N)N)NC(=O)[C@H](CCCNC(=N)N)NC(=O)[C@H](CCCNC(=N)N)NC(=O)[C@H](C)NC(=O)[C@H](Cc1ccccc1)NC(=O)[C@H](CCC(=O)O)NC(=O)[C@H](CCC(=O)O)NC(=O)[C@H](CC(=O)O)NC(=O)[C@H](CC(=O)O)NC(=O)[C@H](Cc1c[nH]cn1)NC(=O)[C@H](Cc1c[nH]c2ccccc12)NC(=O)[C@H](C)NC(=O)[C@@H](N)CCSC)NC(=O)CCCCCNC(=O)[C@H](CCCNC(=N)N)NC(=O)[C@H](CCCNC(=N)N)NC(=O)[C@H](CCCNC(=N)N)NC(=O)[C@H](CCCNC(=N)N)NC(=O)[C@H](C)NC(=O)[C@H](Cc1ccccc1)NC(=O)[C@H](CCC(=O)O)NC(=O)[C@H](CCC(=O)O)NC(=O)[C@H](CC(=O)O)NC(=O)[C@H](CC(=O)O)NC(=O)[C@H](Cc1c[nH]cn1)NC(=O)[C@H](Cc1c[nH]c2ccccc12)NC(=O)[C@H](C)NC(=O)[C@@H](N)CCSC)C(N)=O (stereo partly drawn) | mouse cells | co-immunoprecipitation |  | concentration not given, unit not given, added: RANKL | relative to: RANKL alone | MKK3-TRAF6 association | 0.814
CC(C)C[C@@H](/C=C/[C@H](Cc1ccccc1)C(=O)N1CCC[C@H]1C(=O)N[C@H](C(=O)NC1CC(C)(C)N([O])C(C)(C)C1)C(C)C)NC(=O)OC(C)(C)C | PANC-1 | protection from ferroptosis, PrestoBlue |  | 24 h, added: erastin 10 µM |  | EC50 | 0.367 µM
